Measurements gathered from unrelated publications.
Lines come from different studies, so protocols differ. Numbers after ± are the reported error.
STING1 H232R: Stimulator of interferon genes protein (STING1, Homo sapiens, UniProt Q86WV6, H232R)
Sequence of UniProt Q86WV6 (whole entry, unmodified, looked up): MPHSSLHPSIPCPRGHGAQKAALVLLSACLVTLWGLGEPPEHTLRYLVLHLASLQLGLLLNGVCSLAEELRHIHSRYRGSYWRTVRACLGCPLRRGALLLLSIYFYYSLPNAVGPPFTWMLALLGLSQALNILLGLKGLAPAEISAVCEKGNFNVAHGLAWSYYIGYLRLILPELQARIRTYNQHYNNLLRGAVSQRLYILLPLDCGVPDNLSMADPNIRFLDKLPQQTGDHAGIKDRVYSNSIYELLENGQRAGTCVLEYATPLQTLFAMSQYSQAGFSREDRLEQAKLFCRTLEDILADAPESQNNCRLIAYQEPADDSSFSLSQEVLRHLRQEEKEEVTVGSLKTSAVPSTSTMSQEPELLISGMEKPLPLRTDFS
Sequence of UniProt O00141 (whole entry, unmodified, looked up): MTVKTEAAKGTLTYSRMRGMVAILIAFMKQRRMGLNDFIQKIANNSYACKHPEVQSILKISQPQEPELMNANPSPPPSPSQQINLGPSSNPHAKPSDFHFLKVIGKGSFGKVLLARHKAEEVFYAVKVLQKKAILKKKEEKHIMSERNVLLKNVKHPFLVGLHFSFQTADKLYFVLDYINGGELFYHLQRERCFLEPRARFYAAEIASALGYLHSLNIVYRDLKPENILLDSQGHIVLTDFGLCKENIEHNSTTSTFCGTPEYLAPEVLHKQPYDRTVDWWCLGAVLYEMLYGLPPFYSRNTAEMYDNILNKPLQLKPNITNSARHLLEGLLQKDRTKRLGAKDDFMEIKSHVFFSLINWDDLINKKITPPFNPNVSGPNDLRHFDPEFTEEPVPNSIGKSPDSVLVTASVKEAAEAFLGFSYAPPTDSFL
Sequence of UniProt P18089 (whole entry, looked up): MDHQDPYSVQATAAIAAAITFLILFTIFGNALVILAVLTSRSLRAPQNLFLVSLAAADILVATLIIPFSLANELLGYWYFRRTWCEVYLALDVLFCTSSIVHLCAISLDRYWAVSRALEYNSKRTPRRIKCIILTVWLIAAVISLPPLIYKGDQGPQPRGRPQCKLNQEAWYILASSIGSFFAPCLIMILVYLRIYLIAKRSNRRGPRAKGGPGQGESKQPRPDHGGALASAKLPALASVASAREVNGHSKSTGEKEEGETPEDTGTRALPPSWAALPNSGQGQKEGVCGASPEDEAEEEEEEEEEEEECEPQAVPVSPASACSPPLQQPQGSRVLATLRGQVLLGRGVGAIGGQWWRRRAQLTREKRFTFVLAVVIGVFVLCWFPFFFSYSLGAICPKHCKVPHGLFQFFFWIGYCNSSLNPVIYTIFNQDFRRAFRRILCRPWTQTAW

| Compound | tested on | assay | system | conditions | scale | endpoint | value |
| --- | --- | --- | --- | --- | --- | --- | --- |
| CC(C)=CCc1cc(C(=O)/C=C/c2ccc(O)cc2)c(O)cc1O | – | phase I metabolism, substrate | minipig liver microsomes | – | – | substrate inhibition constant | 41.6 ± 10.1 µM |
| O=C(N[C@@H](CCNC(=O)c1ccc([N+](=O)[O-])o1)c1nc2ccccc2[nH]1)c1cnn(-c2ccccc2)c1 | STING1 H232R | reporter gene, inhibitor | THP1-Dual KI-hSTING-R232 | 24 h, 1 h preincubation, added: diABZI 500 nM | – | EC50 | 14700 nM |
| O=C(Nc1cc(Cl)ccc1O)c1cnc(-c2ccncc2)s1 | SGK1 (Homo sapiens, UniProt O00141, S422D) | kinase activity, inhibitor | – | – | – | IC50 | 12100 ± 1110 nM |
| Clc1cc2nc(c1)CNCc1cc(Cl)cc(n1)CNC2.[Cu+2] | – | superoxide dismutase-like activity, McCord-Fridovich NBT | cell-free system | pH 7.8, added: xanthine/xanthine oxidase | – | IC50 | 517 nM |
| O=C(N[C@@H](CCNC(=O)c1ccc([N+](=O)[O-])o1)c1nc2ccccc2[nH]1)c1ccc(-c2ccccc2)cc1 | STING1 H232R | reporter gene, inhibitor | THP1-Dual KI-hSTING-R232 | 24 h, 1 h preincubation, added: diABZI 500 nM | – | EC50 | 6800 nM |
| Cc1nn(-c2cccc(N)c2)c(=O)c2cnc(Nc3ccc(N4CCNCC4)cc3)nc12 | SYK (Homo sapiens, UniProt P43405) | enzyme activity, inhibitor | – | – | – | IC50 | > 10000 nM |
| Cn1cc(C(=O)N[C@@H](CCNC(=O)c2ccc([N+](=O)[O-])o2)c2nc3ccccc3[nH]2)nn1 | STING1 H232R | reporter gene, inhibitor | THP1-Dual KI-hSTING-R232 | 24 h, 1 h preincubation, added: diABZI 500 nM | – | EC50 | > 40000 nM |
| FC(F)(F)c1cc2nc(c1)CNCc1cc(C(F)(F)F)cc(n1)CNC2.[Cu+2] | – | superoxide dismutase-like activity, McCord-Fridovich NBT | cell-free system | pH 7.8, added: xanthine/xanthine oxidase | – | IC50 | 59 nM |
| CC(C)C[C@H](NC(=O)[C@@H](CCCCNC(=O)[C@@H](Cc1ccccc1)NC(=O)CCCCCNC(=O)CN1CCN(CC(=O)O)CCN(CC(=O)O)CCN(CC(=O)O)CC1)NC(=O)[C@H](Cc1ccc(O)cc1)NC(=O)[C@H](CO)NC(=O)[C@H](Cc1c[nH]c2ccccc12)NC(=O)[C@H](Cc1c[nH]cn1)NC(=O)[C@@H]1CCC(=O)N1)C(=O)N[C@@H](CCCNC(=N)N)C(=O)N1CCC[C@H]1C(=O)NCC(N)=O [indium-111 labelled] | – | – | female athymic nude mice, brain | intravenous, 0.037 MBq, 2 h | – | tissue uptake | 0.01 %ID/g |
| O=C1c2ccc3c4ccc5c6c(ccc(c7ccc(c2c37)C(=O)N1CCN1CCCCC1)c64)C(=O)N(CCN1CCCCC1)C5=O | human telomeric G-quadruplex DNA | binding, thiazole orange displacement | – | pH 6 | – | DC50 | 570 ± 120 nM |
| Cn1ccc2c(N3CCN(CCCCOc4ccc5c(c4)NC(=O)CC5)CC3)cccc21 | ADRA2B (Homo sapiens, UniProt P18089) | ligand displacement, radioligand | – | – | – | Ki | 1680 nM |
| COC1CN([C@H]2CC[C@H]([C@@]3(C)Oc4c(Cl)cc(C(=O)NCc5c(SC)cc(C)[nH]c5=O)c(C)c4O3)CC2)C1 | – | RNA-seq, measured: HPSE mouse homolog | mouse, HT-1376 xenograft, whole blood | dose not given | baseline: vehicle | log2 fold change | 0.395 |
| Ic1cc2nc(c1)CNCc1cc(I)cc(n1)CNC2.[Cu+2] | – | superoxide dismutase-like activity, McCord-Fridovich NBT | cell-free system | pH 7.8, added: xanthine/xanthine oxidase | – | IC50 | 352 nM |
| Cc1ncsc1-c1ccc(C(C)NC(=O)C2CC(O)CN2C(=O)C(NC(=O)CCCCCCCCCCN2CCCC(Nc3ncc(Cl)c(Nc4ccccc4S(=O)(=O)C(C)C)n3)C2)C(C)(C)C)cc1 (stereo not drawn) | 22Rv1 | RNA-seq, measured: SMAD6 mRNA | – | concentration not given | baseline: DMSO | log2 fold change | -1.71 |
| Nc1ncc(-c2cc(-c3cnn(CC(F)(F)F)c3)ncc2F)nc1C(=O)NC1CNCC(F)C1 (stereo not drawn) | CSNK1A1L | KINOMEscan | – | 1 µM | baseline: DMSO control | remaining binding | 51% |

A few entries again:
| Compound | tested on | assay | system | conditions | scale | endpoint | value |
| --- | --- | --- | --- | --- | --- | --- | --- |
| O=C(N[C@@H](CCNC(=O)c1ccc([N+](=O)[O-])o1)c1nc2ccccc2[nH]1)c1ccc(-c2ccccc2)cc1 | STING1 H232R | reporter gene, inhibitor | THP1-Dual KI-hSTING-R232 | 24 h, 1 h preincubation, added: diABZI 500 nM | – | EC50 | 6800 nM |
| Cc1nn(-c2cccc(N)c2)c(=O)c2cnc(Nc3ccc(N4CCNCC4)cc3)nc12 | SYK (Homo sapiens, UniProt P43405) | enzyme activity, inhibitor | – | – | – | IC50 | > 10000 nM |
